Published values pooled from the literature.
Each numbered part is a random draw from the data of one study; scales do not carry over between parts. Several values in a cell are separate wells, animals, samples, runs or records.
Sequence of UniProt P54756 (whole entry, looked up): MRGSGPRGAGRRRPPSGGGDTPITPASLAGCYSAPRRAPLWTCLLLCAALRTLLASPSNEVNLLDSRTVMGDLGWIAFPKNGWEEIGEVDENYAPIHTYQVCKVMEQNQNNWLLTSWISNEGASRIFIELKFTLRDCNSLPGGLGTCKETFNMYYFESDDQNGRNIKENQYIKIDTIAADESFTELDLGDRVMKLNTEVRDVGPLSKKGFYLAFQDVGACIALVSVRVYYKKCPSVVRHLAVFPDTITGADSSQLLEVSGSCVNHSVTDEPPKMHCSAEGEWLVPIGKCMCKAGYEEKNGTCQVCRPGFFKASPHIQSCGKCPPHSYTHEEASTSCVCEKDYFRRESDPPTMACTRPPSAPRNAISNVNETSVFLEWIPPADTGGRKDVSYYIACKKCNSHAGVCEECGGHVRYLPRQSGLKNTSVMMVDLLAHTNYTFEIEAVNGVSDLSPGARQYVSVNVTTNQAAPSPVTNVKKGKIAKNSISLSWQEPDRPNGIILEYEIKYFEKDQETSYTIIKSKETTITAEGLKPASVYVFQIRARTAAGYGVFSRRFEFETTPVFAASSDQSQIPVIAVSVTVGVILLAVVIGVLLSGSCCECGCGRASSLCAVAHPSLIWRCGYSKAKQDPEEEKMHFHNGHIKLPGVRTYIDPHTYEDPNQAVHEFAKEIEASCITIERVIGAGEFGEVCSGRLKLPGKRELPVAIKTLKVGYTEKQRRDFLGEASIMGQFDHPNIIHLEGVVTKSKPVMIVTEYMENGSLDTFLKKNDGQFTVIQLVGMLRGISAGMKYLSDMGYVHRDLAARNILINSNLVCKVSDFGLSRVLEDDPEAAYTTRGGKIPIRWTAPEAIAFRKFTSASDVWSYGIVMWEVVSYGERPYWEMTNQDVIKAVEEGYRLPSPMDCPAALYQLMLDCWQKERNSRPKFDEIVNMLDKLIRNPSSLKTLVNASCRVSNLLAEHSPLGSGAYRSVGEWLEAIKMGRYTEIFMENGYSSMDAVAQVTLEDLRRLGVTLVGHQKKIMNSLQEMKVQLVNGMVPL
Sequence of UniProt Q12851 (whole entry, looked up): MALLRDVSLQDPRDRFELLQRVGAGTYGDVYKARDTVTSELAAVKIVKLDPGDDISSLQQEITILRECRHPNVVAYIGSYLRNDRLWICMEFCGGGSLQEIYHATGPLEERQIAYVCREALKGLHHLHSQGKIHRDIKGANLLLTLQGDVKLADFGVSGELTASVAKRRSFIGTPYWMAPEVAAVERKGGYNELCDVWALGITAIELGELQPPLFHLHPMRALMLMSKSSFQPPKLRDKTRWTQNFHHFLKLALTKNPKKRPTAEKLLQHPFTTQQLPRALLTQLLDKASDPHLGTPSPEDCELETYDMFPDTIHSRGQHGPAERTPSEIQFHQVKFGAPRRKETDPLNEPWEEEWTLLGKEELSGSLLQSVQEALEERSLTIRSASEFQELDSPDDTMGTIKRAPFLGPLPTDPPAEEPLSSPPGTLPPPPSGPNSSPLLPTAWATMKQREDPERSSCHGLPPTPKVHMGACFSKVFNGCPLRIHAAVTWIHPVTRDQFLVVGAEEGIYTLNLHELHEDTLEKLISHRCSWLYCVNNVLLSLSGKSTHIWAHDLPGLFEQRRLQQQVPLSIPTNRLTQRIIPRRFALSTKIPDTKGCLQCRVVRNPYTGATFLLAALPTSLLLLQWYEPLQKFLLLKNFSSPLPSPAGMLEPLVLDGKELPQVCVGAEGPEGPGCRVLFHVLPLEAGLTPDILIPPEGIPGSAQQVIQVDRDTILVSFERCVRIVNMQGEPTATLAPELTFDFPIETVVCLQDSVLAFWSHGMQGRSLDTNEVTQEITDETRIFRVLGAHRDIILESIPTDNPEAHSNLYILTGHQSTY
Sequence of UniProt P53778 (whole entry, looked up): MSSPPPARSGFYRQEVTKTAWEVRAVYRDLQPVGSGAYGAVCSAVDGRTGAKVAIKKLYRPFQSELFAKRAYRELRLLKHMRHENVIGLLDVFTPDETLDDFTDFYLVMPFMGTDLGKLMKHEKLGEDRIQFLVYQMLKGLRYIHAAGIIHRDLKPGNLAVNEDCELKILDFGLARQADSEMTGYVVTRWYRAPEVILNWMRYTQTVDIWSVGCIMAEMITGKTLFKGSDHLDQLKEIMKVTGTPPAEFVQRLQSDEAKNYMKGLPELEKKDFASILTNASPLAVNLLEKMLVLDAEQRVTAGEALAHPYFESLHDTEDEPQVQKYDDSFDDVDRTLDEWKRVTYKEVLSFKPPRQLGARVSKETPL

Block 1 — observed: enzyme activity; mode: inhibitor; concentration: 0.5 µM; measurement: remaining activity
SMILES: COc1ccc2c(c[n+](C)c3c4cc5c(cc4ccc23)OCO5)c1OC
MAPK12 (Homo sapiens, UniProt P53778); baseline: control: 100%
CHEK1 (Homo sapiens, UniProt O14757); baseline: control: 94.4%
PRKG1 (Homo sapiens, UniProt Q13976); baseline: control: 98.8%
WNK2 (Homo sapiens, UniProt Q9Y3S1); baseline: control: 98.5%
CSNK1A1 (Homo sapiens, UniProt P48729); baseline: control: 103%
LYN (Homo sapiens, UniProt P07948); baseline: control: 100%
PRKCD (Homo sapiens, UniProt Q05655); baseline: control: 96.8%
BTK (Homo sapiens, UniProt Q06187); baseline: control: 98.6%
MKNK2 (Homo sapiens, UniProt Q9HBH9); baseline: control: 107%
PRKCI (Homo sapiens, UniProt P41743); baseline: control: 98.3%
Cyclin-dependent kinase 9, with cyclin T1 (CDK9, Homo sapiens, UniProt P50750); baseline: control: 96.4%
STK33 (Homo sapiens, UniProt Q9BYT3); radiometric: 102%
IRAK4 (Homo sapiens, UniProt Q9NWZ3); baseline: control: 116%
AKT3 (Homo sapiens, UniProt Q9Y243); baseline: control: 103%
KIT (Homo sapiens, UniProt P10721); baseline: control: 68.8%
CSNK2A1 (Homo sapiens, UniProt P68400); baseline: control: 83.3%
MAP2K6 (Homo sapiens, UniProt P52564); baseline: control: 95%
EPHA5 (Homo sapiens, UniProt P54756); baseline: control: 94.6%
NEK4 (Homo sapiens, UniProt P51957); baseline: control: 96.6%
LRRK2 (Homo sapiens, UniProt Q5S007); baseline: control: 104%
MAP3K10 (Homo sapiens, UniProt Q02779); baseline: control: 91.7%
MAP4K2 (Homo sapiens, UniProt Q12851); baseline: control: 96.1%
PLK2 (Homo sapiens, UniProt Q9NYY3); baseline: control: 97.6%

Block 2 — observed: enzyme activity; mode: inhibitor; concentration: 77 µM; baseline: untreated; measurement: remaining activity
Target: DNA polymerase theta, ATPase domain (POLQ, Homo sapiens, UniProt O75417)
Sequence of UniProt O75417 (whole entry, unmodified, looked up): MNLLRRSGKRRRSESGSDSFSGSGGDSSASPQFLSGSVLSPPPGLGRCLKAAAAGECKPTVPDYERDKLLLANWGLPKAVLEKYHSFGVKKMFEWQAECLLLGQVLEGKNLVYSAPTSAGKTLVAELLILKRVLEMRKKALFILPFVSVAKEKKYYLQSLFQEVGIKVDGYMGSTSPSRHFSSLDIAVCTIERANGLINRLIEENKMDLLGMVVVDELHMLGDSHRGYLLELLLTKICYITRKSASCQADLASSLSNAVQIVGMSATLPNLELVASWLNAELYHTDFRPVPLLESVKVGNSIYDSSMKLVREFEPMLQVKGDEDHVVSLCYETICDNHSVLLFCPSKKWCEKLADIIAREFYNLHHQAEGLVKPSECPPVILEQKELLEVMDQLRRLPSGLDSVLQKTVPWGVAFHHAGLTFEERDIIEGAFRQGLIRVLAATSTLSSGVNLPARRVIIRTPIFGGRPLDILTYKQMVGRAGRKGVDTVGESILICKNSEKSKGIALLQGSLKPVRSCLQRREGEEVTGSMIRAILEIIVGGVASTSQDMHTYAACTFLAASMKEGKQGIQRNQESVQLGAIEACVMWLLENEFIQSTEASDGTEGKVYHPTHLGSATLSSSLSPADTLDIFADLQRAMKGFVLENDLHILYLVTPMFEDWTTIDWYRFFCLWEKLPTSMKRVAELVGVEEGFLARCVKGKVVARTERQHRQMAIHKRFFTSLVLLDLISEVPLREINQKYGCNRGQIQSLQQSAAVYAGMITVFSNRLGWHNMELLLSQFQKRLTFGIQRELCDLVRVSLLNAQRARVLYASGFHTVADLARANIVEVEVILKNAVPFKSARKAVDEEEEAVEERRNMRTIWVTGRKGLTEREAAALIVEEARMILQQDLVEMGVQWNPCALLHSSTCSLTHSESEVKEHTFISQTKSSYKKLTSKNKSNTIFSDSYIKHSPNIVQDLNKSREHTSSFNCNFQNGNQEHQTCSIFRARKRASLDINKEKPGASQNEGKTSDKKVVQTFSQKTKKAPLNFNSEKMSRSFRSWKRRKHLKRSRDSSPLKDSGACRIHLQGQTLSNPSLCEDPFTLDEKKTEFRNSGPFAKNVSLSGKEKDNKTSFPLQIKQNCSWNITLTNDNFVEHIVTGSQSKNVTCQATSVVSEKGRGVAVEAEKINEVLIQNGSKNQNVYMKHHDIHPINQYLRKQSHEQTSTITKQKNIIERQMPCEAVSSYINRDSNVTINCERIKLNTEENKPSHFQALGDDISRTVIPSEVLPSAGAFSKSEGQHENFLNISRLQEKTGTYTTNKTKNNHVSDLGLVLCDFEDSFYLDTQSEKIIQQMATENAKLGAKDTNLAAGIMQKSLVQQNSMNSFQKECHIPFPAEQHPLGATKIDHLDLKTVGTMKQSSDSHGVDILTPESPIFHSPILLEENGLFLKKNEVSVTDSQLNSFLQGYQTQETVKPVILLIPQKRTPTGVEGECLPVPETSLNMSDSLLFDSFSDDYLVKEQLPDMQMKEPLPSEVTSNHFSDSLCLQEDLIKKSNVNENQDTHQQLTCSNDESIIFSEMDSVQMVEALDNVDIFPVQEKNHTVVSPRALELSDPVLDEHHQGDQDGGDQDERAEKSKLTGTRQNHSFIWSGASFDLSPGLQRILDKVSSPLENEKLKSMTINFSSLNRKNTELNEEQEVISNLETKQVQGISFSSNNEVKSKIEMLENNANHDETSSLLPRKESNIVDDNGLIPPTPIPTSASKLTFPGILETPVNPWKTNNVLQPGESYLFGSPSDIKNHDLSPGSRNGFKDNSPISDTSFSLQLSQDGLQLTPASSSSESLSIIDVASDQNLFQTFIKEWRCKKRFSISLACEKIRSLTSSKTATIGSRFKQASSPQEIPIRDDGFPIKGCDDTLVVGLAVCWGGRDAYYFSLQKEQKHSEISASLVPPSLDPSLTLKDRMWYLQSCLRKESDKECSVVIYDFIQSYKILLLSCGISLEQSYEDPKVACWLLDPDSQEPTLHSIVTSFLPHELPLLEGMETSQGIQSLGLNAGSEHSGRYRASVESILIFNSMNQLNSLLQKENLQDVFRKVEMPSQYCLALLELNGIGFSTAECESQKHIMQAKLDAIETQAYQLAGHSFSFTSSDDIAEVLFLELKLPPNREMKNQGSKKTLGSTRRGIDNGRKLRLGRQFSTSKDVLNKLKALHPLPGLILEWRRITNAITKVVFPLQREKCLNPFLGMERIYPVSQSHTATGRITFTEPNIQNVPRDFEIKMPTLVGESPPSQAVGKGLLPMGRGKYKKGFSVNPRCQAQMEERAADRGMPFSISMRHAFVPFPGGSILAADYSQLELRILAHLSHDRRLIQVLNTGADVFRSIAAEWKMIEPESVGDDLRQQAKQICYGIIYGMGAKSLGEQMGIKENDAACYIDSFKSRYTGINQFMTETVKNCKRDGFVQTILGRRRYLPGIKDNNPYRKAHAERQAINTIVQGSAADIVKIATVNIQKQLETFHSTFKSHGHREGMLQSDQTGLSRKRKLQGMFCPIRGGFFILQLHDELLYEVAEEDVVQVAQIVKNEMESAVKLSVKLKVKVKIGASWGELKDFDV
C#CCN[C@H](C)Cc1ccccc1: 98.1%
CCC(COC(=O)c1cc(OC)c(OC)c(OC)c1)(c1ccccc1)N(C)C (centres unmarked): 95.1%
CC[C@H]1CN2CC[C@H]1C[C@H]2[C@H](O)c1ccnc2ccc(OC)cc12: 94.2%
C=CCN1CC[C@]23CCCC[C@H]2[C@H]1Cc1ccc(O)cc13: 101%
C=C[C@]12CN(C)[C@@H]3[C@H]4CO[C@H](C[C@H]41)[C@]1(C(=O)Nc4ccccc41)[C@@H]32: 99.1%
COc1cc2c3cc1Oc1cc(ccc1O)C[C@@H]1c4c(cc(OC)c(O)c4Oc4cccc(c4)C[C@@H]3N(C)CC2)CC[N+]1(C)C: 98.3%

Block 3 — cell line: HEK-293T/ACE2; concentration: concentration not given; time: 16 (unit not given); baseline: vehicle; measurement: viability
COc1c(N2C[C@@H]3CCCN[C@@H]3C2)c(F)cc2c(=O)c(C(=O)O)cn(C3CC3)c12: 99%
COc1ccc([C@@H]2Sc3ccccc3N(CCN(C)C)C(=O)[C@@H]2OC(C)=O)cc1: 103%
CC(O)(CS(=O)(=O)c1ccc(F)cc1)C(=O)Nc1ccc(C#N)c(C(F)(F)F)c1 (centres unmarked): 98.3%
CC(S)C(=O)NCC(=O)O (centres unmarked): 102%
CC1(C)NC(=O)N(c2ccc([N+](=O)[O-])c(C(F)(F)F)c2)C1=O: 102%
N#Cc1ccc(C(c2ccc(C#N)cc2)n2cncn2)cc1: 101%
CC(N)C12CC3CC(CC(C3)C1)C2 (centres unmarked): 102%
CC1=C(C(=O)O)N2C(=O)[C@@H](NC(=O)[C@H](N)c3ccc(O)cc3)[C@H]2SC1: 102%
Nc1cc(N2CCCCC2)nc(N)[n+]1[O-]: 99.2%
COc1c(C)c2c(c(O)c1C/C=C(\C)CCC(=O)OCCN1CCOCC1)C(=O)OC2: 94.9%

Block 4 — cell line: mouse MPNST tumor cells; method: high-content nuclear imaging; measured: cell number; concentration: 10 µM; time: 12 h; setting: mean of 2 replicates; baseline: plate mean; direction: higher = more cells; measurement: nuclei count
NCC1(CC(=O)O)CCCCC1: 0.722 z-score and 1.5 z-score
CN[C@@H]1[C@@H](O)[C@@H](O[C@@H]2[C@@H](O)[C@H](O[C@H]3O[C@H](CN)CC[C@H]3N)[C@@H](N)C[C@H]2N)OC[C@]1(C)O.CN[C@@H]1[C@@H](O)[C@@H](O[C@@H]2[C@@H](O)[C@H](O[C@H]3O[C@H]([C@@H](C)N)CC[C@H]3N)[C@@H](N)C[C@H]2N)OC[C@]1(C)O.CN[C@@H]1[C@@H](O)[C@@H](O[C@@H]2[C@@H](O)[C@H](O[C@H]3O[C@H]([C@@H](C)NC)CC[C@H]3N)[C@@H](N)C[C@H]2N)OC[C@]1(C)O: 1.04 z-score
CCNCC(O)c1cccc(O)c1 (centres unmarked): 1.63 z-score
NC(=O)OCCCc1ccccc1: 1.58 z-score
CN1CCN(C(=O)O[C@H]2c3nccnc3C(=O)N2c2ccc(Cl)cn2)CC1: 1.91 z-score

Mixed results
CRK2: Cyclin-dependent kinase 2 homolog (CRK2, Plasmodium falciparum, UniProt P61075)
Sequence of UniProt P61075 (whole entry, looked up): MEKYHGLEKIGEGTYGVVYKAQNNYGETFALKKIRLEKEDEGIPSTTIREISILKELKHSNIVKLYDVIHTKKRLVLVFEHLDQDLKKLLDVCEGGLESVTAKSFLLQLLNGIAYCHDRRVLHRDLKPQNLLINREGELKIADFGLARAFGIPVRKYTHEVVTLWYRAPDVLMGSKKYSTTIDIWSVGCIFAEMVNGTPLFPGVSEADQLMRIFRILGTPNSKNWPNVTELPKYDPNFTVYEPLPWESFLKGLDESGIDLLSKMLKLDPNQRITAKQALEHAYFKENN
Cc1c(NC(=O)c2cc(C(N)=O)nc3cc(F)ccc23)c(C(F)(F)F)nn1Cc1ccc(C(C)(C)C)cc1
remaining binding (pknB (Mycobacterium tuberculosis, UniProt P9WI81); cell-free assay, competition with immobilised ligand; 1 µM): 95%

Brc1cnc2n[se]nc2c1
remaining compound (mouse, microsomes or S9; 2 µM, 0.5 h): 91.2%

CC(=O)c1c(NS(C)(=O)=O)c2cc(-c3ccc(Cl)cc3)c(-c3ccc(Cl)cc3Cl)nc2n(C)c1=O
remaining binding (CRK2; cell-free assay, competition with immobilised ligand; 1 µM): 100%

CC(=O)O[C@@H]1C[C@@]2(C)[C@H](c3ccoc3)C[C@H]3O[C@]32[C@]2(C)C(=O)C(O)=C3C(C)(C)C(=O)C=C[C@]3(C)C12 (some centres unmarked)
remaining compound (mouse, microsomes or S9; 2 µM, 0.5 h): > 99%

N#CC1(c2ccccn2)CCN(Cc2cc(C(=O)N3CCCC3)c(=O)n3ccccc23)CC1
remaining binding (CDPK1 (Plasmodium falciparum, UniProt P62344); cell-free assay, competition with immobilised ligand; 1 µM): 84%

Cc1nc(C2CCN(C(=O)c3ccc(OC(F)(F)F)cc3N)CC2)c2ncc(N3CCN(C)CC3)cc2n1
remaining binding (CRK2; cell-free assay, competition with immobilised ligand; 1 µM): 100%
